{"data": "Assay results of several laboratories", "B1": "SOX11 HMG box (UniProt P35716); chain IKRPMNAFMVWSKIERRKIMEQSPDMHNAEISKRLGKRWKMLKDSEKIPFIREAERLRLKHMADYPDYK", "B2": "PUX2 157-273 (Arabidopsis thaliana, UniProt Q9ZU93); chain DNNDNDKSEMEKLVVVYLSGKPSESSIDVLLRLFKNIVKEPENAKFRKVRMSNAKIKEAIGDVAGGVELLELVGFELKEENDEIWAVMDVPSEEQSILINKVVGYLEKRKTESSGSS", "B3": "Cacna1c 1647-1777 (Mus musculus, UniProt Q01815); sequence looked up; chain NALSLQAGLRTLHDIGPEIRRAISGDLTAEEELDKAMKEAVSAASEDDIFRRAGGLFGNHVTYYQSDSRGNFPQTFATQRPLHINKTGNNQADTESPSHEKLVDSTFTPSSYSSTGSNANINNANNTALGR", "B4": "CFH 1108-1231 R1203S (Homo sapiens, UniProt P08603); sequence looked up; chain KCGPPPPIDNGDITSFPLSVYAPASSVEYQCQNLYQLEGNKRITCRNGQWSEPPKCLHPCVISREIMENYNIALRWTAKQKLYSRTGESVEFVCKSGYRLSSRSHTLRTTCWDGKLEYPTCAKR", "B5": "protein 1-89 (Arabidopsis thaliana, UniProt Q9LYC2); sequence looked up; chain MTMLRVRSRDGLERVSVDGPHITVSQLKTLIQDQLQIPIHNQTLSTNRNLLLAKSPSDFLAFTDMADPNLRISSLNLAHGSMVYLAYEG", "B6": "DTNB 422-535 (Homo sapiens, UniProt O60941-1); sequence looked up; chain PPTDLSFNFDANKQQRQLIAELENKNREILQEIQRLRLEHEQASQPTPEKAQQNPTLLAELRLLRQRKDELEQRMSALQESRRELMVQLEELMKLLKEEEQKQAAQATGSPHTS", "B7": "UBE3A 1-64 (Homo sapiens, UniProt Q05086-2); sequence looked up; chain MKRAAAKHLIERYYHQLTEGCGNEACTNEFCASCPTFLRMDNNAAAIKALELYKINAKLCDPHP", "note": "Each line is one published result; not all experiments were run side by side. Several values in a cell are separate wells, animals, samples, runs or records. ± marks the error that the study gave.", "UniProt Q64663, sequence (whole entry, unmodified, looked up)": "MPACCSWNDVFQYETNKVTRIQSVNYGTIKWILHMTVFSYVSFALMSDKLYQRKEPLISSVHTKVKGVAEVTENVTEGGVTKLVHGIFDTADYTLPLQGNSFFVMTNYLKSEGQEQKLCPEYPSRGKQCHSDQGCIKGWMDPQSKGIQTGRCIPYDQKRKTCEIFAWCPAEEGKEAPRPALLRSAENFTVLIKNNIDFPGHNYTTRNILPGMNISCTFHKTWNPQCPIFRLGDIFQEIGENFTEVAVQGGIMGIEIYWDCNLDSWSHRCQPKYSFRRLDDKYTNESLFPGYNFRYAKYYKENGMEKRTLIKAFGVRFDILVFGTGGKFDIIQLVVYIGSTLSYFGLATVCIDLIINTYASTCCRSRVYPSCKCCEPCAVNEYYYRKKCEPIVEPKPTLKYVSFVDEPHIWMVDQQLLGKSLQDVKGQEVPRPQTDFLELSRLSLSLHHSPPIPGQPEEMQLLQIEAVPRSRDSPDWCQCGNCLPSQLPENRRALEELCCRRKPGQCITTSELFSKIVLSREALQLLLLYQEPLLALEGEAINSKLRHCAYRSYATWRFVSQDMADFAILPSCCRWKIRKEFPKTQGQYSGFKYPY", "UniProt P54609, sequence (whole entry, looked up)": "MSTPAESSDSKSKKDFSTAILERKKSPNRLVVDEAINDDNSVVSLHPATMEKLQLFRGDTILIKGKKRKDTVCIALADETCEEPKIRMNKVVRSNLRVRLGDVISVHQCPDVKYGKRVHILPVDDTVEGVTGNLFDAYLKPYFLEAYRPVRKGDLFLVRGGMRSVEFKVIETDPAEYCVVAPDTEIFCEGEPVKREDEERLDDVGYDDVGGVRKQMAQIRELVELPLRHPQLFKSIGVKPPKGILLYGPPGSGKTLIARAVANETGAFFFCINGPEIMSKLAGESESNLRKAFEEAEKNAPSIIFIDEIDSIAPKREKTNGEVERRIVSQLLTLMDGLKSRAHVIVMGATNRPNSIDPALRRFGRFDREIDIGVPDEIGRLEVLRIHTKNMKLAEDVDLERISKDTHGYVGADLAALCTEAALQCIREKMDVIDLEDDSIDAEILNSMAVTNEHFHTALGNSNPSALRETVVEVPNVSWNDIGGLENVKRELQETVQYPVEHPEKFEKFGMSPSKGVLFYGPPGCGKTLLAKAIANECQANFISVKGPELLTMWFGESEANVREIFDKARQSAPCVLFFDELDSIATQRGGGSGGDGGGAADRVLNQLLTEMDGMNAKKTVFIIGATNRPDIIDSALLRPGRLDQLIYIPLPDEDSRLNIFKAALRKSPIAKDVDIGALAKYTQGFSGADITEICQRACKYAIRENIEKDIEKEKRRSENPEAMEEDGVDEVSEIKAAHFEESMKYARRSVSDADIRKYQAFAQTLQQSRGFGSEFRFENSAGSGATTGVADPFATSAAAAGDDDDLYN", "UniProt P01024, sequence (whole entry, looked up)": "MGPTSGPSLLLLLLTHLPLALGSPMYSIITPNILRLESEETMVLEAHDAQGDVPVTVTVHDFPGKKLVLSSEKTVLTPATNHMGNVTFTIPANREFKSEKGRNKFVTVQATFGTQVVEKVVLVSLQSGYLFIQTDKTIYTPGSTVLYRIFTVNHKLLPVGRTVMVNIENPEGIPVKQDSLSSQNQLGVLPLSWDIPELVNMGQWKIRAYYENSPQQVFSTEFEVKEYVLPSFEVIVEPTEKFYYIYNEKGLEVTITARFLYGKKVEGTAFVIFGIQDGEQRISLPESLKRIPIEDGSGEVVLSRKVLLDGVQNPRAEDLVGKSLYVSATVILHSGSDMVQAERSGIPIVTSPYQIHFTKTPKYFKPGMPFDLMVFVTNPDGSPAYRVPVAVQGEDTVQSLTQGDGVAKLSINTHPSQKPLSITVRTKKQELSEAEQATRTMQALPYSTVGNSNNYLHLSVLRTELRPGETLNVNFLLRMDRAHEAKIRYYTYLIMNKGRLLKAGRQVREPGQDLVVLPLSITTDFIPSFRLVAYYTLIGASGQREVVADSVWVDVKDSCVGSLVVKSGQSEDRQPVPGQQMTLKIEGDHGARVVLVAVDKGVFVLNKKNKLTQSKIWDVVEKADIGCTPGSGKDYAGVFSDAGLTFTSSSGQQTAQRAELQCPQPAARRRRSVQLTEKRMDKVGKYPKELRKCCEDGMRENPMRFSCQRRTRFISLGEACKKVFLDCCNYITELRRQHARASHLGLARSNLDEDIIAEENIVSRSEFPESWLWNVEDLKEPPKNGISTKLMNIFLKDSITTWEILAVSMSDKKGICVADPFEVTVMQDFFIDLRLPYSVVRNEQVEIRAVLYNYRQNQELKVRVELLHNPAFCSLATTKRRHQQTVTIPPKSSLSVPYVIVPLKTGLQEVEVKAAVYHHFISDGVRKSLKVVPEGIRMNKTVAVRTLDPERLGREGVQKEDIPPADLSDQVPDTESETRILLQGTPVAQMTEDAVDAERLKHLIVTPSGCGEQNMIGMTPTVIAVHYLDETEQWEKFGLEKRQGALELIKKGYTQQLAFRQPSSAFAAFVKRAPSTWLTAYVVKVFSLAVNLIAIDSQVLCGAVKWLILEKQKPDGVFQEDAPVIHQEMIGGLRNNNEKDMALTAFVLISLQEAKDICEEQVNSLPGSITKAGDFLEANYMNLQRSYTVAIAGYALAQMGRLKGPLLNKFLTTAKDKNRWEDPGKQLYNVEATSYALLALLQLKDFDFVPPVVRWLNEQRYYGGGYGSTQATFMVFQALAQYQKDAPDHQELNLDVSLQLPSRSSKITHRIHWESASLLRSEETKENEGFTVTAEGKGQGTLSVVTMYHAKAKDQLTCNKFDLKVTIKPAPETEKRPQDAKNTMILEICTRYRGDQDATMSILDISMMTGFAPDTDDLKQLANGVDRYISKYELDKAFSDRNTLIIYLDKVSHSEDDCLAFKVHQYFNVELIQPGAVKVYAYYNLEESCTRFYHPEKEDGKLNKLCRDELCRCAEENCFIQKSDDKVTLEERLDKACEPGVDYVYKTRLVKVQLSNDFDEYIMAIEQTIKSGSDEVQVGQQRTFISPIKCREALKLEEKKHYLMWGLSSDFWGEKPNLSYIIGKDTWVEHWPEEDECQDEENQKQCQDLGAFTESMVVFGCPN", "UniProt P06748, sequence (whole entry, looked up)": "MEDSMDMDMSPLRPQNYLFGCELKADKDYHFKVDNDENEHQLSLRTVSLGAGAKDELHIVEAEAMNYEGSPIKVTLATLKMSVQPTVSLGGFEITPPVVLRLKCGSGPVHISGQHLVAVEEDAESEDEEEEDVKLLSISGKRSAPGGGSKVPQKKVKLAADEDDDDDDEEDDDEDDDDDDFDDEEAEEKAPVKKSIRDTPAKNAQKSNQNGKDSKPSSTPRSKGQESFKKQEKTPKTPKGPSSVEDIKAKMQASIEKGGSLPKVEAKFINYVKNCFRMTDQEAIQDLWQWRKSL", "UniProt P55036, sequence (whole entry, looked up)": "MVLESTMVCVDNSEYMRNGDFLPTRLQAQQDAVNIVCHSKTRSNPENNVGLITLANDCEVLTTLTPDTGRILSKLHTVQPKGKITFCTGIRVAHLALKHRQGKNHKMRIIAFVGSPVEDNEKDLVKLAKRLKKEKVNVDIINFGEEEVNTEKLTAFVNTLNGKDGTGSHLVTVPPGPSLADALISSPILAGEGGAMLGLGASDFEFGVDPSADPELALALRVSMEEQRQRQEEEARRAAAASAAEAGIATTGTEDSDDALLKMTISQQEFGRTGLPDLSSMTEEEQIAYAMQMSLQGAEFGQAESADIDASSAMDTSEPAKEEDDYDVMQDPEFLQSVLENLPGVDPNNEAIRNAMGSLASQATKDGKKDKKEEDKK"}
{"Molecule": "B1 (SOX11 HMG box)", "target or system": "SAMHD1 fragment (Homo sapiens)", "assay": "microscale thermophoresis", "endpoint": "Kd", "result": "3.2 µM"}
{"Molecule": "B2 (PUX2 157-273)", "target or system": "CDC48A 465-809 (Arabidopsis thaliana, UniProt P54609)", "assay": "ITC", "conditions": "25 °C", "endpoint": "Kd", "result": "13.5 ± 2.2 µM"}
{"Molecule": "B3 (Cacna1c 1647-1777)", "target or system": "Jph2 1-440 S165A (Mus musculus, UniProt Q9ET78)", "assay": "ITC", "endpoint": "Kd", "result": "9.27 µM"}
{"Molecule": "B4 (CFH 1108-1231 R1203S)", "target or system": "C3 C3dg 955-1303 (Homo sapiens, UniProt P01024)", "assay": "SPR", "endpoint": "Kd", "result": "11.5 ± 0.3 µM"}
{"Molecule": "colistin", "target or system": "Acinetobacter pittii", "assay": "broth microdilution", "system": "clinical isolate RKI 588/16", "endpoint": "MIC", "result": "≤ 0.5 µg/mL"}
{"Molecule": "BzATP", "target or system": "P2X purinoceptor 7 (P2rx7, Rattus norvegicus, UniProt Q64663, R125A)", "assay": "ion current, agonist, two-electrode voltage clamp", "system": "Xenopus oocytes", "conditions": "0.4115 µM", "endpoint": "normalized current", "result": "0.0113 and 0.0991 and 0.0768"}
{"Molecule": "B5 (protein 1-89)", "target or system": "CDC48A (Arabidopsis thaliana, UniProt P54609)", "assay": "ITC", "conditions": "with: AMPPNP", "endpoint": "Kd", "result": "3.2 µM"}
{"Molecule": "GSYPRPRPRPRPRPRPRPRPRPRPRPRPRPRPRPRPRPRPRPRPRPRPR (poly-PR (PR)23)", "target or system": "NPM1 (Homo sapiens, UniProt P06748)", "assay": "fluorescence polarisation", "system": "peptide", "conditions": "apparent", "endpoint": "Kd", "result": "0.0504 ± 0.0075 µM"}
{"Molecule": "B6 (DTNB 422-535)", "target or system": "DMD 3365-3685 (Homo sapiens, UniProt P11532-1)", "assay": "ITC", "endpoint": "Kd", "result": "6.66 µM"}
{"Molecule": "B7 (UBE3A 1-64)", "target or system": "PSMD4 305-377 (Homo sapiens, UniProt P55036)", "assay": "ITC", "endpoint": "Kd", "result": "0.204 ± 0.017 µM"}
{"Molecule": "GCVRLHESCLGQQVPCCDPAATCYCTGRGDEKLRCYCR (designed peptide AgRP scaffold)", "target or system": "ITGAV/ITGB3 U87MG cells (Homo sapiens)", "assay": "flow cytometry", "system": "designed binder, U87MG", "endpoint": "Kd", "result": "0.013 µM"}
{"Molecule": "GSGAGKESYV", "target or system": "human SCRIB PDZ3-4 tandem (MBP fusion)", "assay": "automated holdup", "system": "peptide, crude extract", "conditions": "concentration not given, corrected by standard peak, unit not given", "how to read": "baseline: biotin control resin, higher = stronger binding", "endpoint": "binding intensity", "result": 0.755}
{"Molecule": "SCN2A fragment I1912A (Homo sapiens) (sequence not shown)", "target or system": "CALM1 (Homo sapiens, UniProt P0DP23)", "assay": "fluorescence titration", "conditions": "pH 7.4, 22 °C, with: calcium", "endpoint": "Kd", "result": "0.391 µM"}
{"Molecule": "EKPIDSETKM", "target or system": "human SCRIB PDZ3-4 tandem (MBP fusion)", "assay": "automated holdup", "system": "peptide, purified PDZ protein", "conditions": "concentration not given, unit not given", "how to read": "baseline: biotin control resin, higher = stronger binding", "endpoint": "binding intensity", "result": -0.0456}
{"Molecule": "WWP2 C506A/C822S/C802S/C750S/C666S/C588S/C577S, N-terminal Cy5 label (Homo sapiens) (sequence not shown)", "target or system": "UBE2D2 (Homo sapiens, UniProt P62837)", "assay": "MST", "endpoint": "Kd", "result": "38.3 ± 3.2 µM"}
{"note": "A few entries again:"}
{"Molecule": "B1 (SOX11 HMG box)", "target or system": "SAMHD1 fragment (Homo sapiens)", "assay": "microscale thermophoresis", "endpoint": "Kd", "result": "3.2 µM"}
